Assay results pooled from the literature.
Values joined by “and” are separate records of one study, mostly repeats; a detail may differ. ± marks the error that the study gave.

Structure (SMILES) | tested on | assay | test system | setting | measurement | result
CC[C@H](C)[C@H]1NC(=O)[C@@H](C)N(C)C(=O)[C@H](C)N(C)C(=O)[C@H](CC(C)C)NC(=O)[C@H](Cc2ccccc2)N(C)C(=O)[C@H](C(C)C)NC(=O)[C@@H](C(C)C)NC1=O | HCT-116 | cell viability, CellTiter-Glo ATP | – | 72 h | CC50 | > 10 µM
[Cl-].[Cl-].[Ru+2].c1ccc(-c2ccccn2)nc1.c1ccc(-c2ccccn2)nc1.c1ccc2cc3nc4c5cccnc5c5ncccc5c4nc3cc2c1 | SK-MEL-28 | cytotoxicity, sulforhodamine B | – | red light, normoxia | CC50 | 0.153 µM
Cc1ccc(-c2cc(-c3ccc(F)cc3)nn2-c2ccc([N+](=O)[O-])cc2[N+](=O)[O-])cc1 | Neuro2a | MTT | – | 48 h | CC50 | ~1 µM
NC(=O)c1cc(-c2ccco2)ccc1OCCc1cccc(F)c1 | HepG2 | – | galactose medium | 3 (unit not given) | CC50 | 56 ± 1 µM
CC[C@H](C)[C@H]1NC(=O)[C@@H](Cc2ccccc2)N(C)C(=O)[C@H](C)N(C)C(=O)[C@H](CC(C)C)NC(=O)[C@H](CC(C)C)N(C)C(=O)[C@H](C)N(C)C(=O)[C@@H]([C@@H](C)CC)NC1=O | HCT-116 | CellTiter-Glo ATP | – | 72 h, 0.1% DMSO | CC50 | 0.02 ± 0.001 µM
Cc1ccc(-c2cc(-c3ccccc3)nn2-c2ccc([N+](=O)[O-])cc2[N+](=O)[O-])cc1 | Neuro2a | MTT | – | 48 h | CC50 | ~10 µM
C[C@H](NC(=O)Cc1cc(F)cc(F)c1)C(=O)N[C@@H]1C(=O)N(C)c2ccccc2-c2ccccc21 | MEF | cell viability, CellTiter-Glo | – | 48 h, uninfected | CC50 | 48.5 µM
O=C1NC2(CC2)COc2ncc(F)cc2[C@H]2COCCN2c2ccn3ncc1c3n2 | – | – | Sprague-Dawley rat, male, thymus | oral, 10 mg/kg/day, 4 weeks dosing, end of recovery | organ-to-body weight ratio | 0.078 ± 0.01%
C[C@H](NC(=O)[C@@H](O)c1cc(F)cc(F)c1)C(=O)N[C@@H]1C(=O)N(C)c2ccccc2-c2ccccc21 | Raji DC-SIGN | cell viability, CellTiter-Glo | – | 48 h, uninfected | CC50 | 242 µM
O=[N+]([O-])c1ccc(-n2nc(-c3ccccc3)cc2-c2ccc(F)cc2)c([N+](=O)[O-])c1 | Neuro2a | MTT | – | 48 h | CC50 | ~50 µM
O=C(CCOCC(COCCC(=O)NC(Cc1c(-c2cc(C(=O)O)cc(C(=O)O)c2)[nH]c2c(-c3cc(C(=O)O)cc(C(=O)O)c3)cccc12)C(=O)O)(COCCC(=O)NC(Cc1c(-c2cc(C(=O)O)cc(C(=O)O)c2)[nH]c2c(-c3cc(C(=O)O)cc(C(=O)O)c3)cccc12)C(=O)O)COCCC(=O)NC(Cc1c(-c2cc(C(=O)O)cc(C(=O)O)c2)[nH]c2c(-c3cc(C(=O)O)cc(C(=O)O)c3)cccc12)C(=O)O)NC(Cc1c(-c2cc(C(=O)O)cc(C(=O)O)c2)[nH]c2c(-c3cc(C(=O)O)cc(C(=O)O)c3)cccc12)C(=O)O (stereo not shown) | HEp-2 | cytotoxicity | – | 24 (unit not given) | CC50 | > 100 µM
O=C(N[C@@H](Cc1ccccc1)C(=O)N[C@@H](C[C@@H]1CCNC1=O)C(O)S(=O)(=O)O)OCc1ccccc1 (stereo partly shown) | HCT-8 | – | – | 5 (unit not given) | CC50 | > 250 µM
NC(=O)c1cc(-c2cncnc2)ccc1OCCc1cccc(F)c1 | HepG2 | – | galactose medium | 3 (unit not given) | CC50 | > 100 µM
Cc1ccc(OCCN(C)C)cc1C(=O)N[C@H](C)c1cc(-c2cnn(CC(=O)N(C)C)c2)nc2ccccc12 | African green monkey cells | – | – | 250 µM | viability | 103%
CC[C@H](C)[C@@H]1NC(=O)[C@@H]([C@@H](C)CC)NC(=O)[C@@H]([C@@H](C)CC)NC(=O)[C@@H](C)N(C)C(=O)[C@H](C)N(C)C(=O)[C@H](CC(C)C)NC(=O)[C@H](Cc2ccccc2)N(C)C1=O | HCT-116 | cell viability, CellTiter-Glo ATP | – | 72 h | CC50 | > 10 µM
NC(=O)c1cc(-c2ccsc2)ccc1OCCc1cc(F)cc(F)c1 | HepG2 | – | galactose medium | 3 (unit not given) | CC50 | > 100 µM
CC[C@H](C)[C@H]1NC(=O)[C@@H](C)N(C)C(=O)[C@H](C)N(C)C(=O)[C@H](CC(C)C)NC(=O)[C@H](CC(C)C)N(C)C(=O)[C@H](C)N(C)C(=O)[C@@H]([C@@H](C)CC)NC1=O | HCT-116 | CellTiter-Glo ATP | – | 72 h, 0.1% DMSO | CC50 | 0.1 ± 0.009 µM
Cc1ccc(OCCN(C)C)cc1C(=O)N[C@H](C)c1cc(-c2ccco2)nc2ccccc12 | Vero E6 | – | – | 250 µM | viability | 7.88% and 9.04%
Nc1nc(Nc2ccc(Cl)c(Cl)c2)nn1S(=O)(=O)c1ccc2ccccc2c1 | Vero 76 | – | – | – | CC50 | 4.1 µM and 5.9 µM

Excerpt of the above:
Structure (SMILES) | tested on | assay | test system | setting | measurement | result
CC[C@H](C)[C@@H]1NC(=O)[C@@H]([C@@H](C)CC)NC(=O)[C@@H]([C@@H](C)CC)NC(=O)[C@@H](C)N(C)C(=O)[C@H](C)N(C)C(=O)[C@H](CC(C)C)NC(=O)[C@H](Cc2ccccc2)N(C)C1=O | HCT-116 | cell viability, CellTiter-Glo ATP | – | 72 h | CC50 | > 10 µM
NC(=O)c1cc(-c2ccsc2)ccc1OCCc1cc(F)cc(F)c1 | HepG2 | – | galactose medium | 3 (unit not given) | CC50 | > 100 µM
